# Experimental data collected from several papers.
# Protocols differ between the studies behind these lines. ± marks the error that the study gave.
# Cell line: MV4-11
Compound,observed,technique,time,together with,reading,measurement,value
Nc1cc(F)ccc1NC(=O)c1ccc(CNC(=O)/C=C/c2cccnc2)cc1,cell growth or viability,CCK-8,48 h,,,IC50,2000 nM
Cc1ccc2cncc(N3CCc4c(cc(Cn5ccnc5)cc4-c4cn(C)nc4C(F)(F)F)C3=O)c2c1,cell growth or viability,ATP luminescence,5 days,,,GI50,42 nM
CCn1cc(-c2cc(Cn3ccnc3)cc3c2CCN([C@@H](C)c2cc(OC)ccn2)C3=O)c(C(F)(F)F)n1,cell growth or viability,ATP luminescence,5 days,,,GI50,9.7 nM
COc1ccc2nccc(N3CCc4c(cc(Cn5ccnc5)cc4-c4cn(C)nc4C(F)(F)F)C3=O)c2c1,cell growth or viability,ATP luminescence,5 days,,,GI50,45 nM
COc1ccc(C[C@H]2COC(=O)[C@@H]2Cc2ccc(OCC(=O)NCC(=O)Nc3ccccc3N)c(OC)c2)cc1OC,cell growth or viability,CCK-8,48 h,,,IC50,> 5000 nM
Nc1nc(F)nc2c1ncn2[C@@H]1O[C@H](CO)[C@@H](O)[C@@H]1O,,,72 h,cytotoxic drug,below 1 means synergy,combination index,0.58 ± 0.06
COc1ccc(C[C@H]2COC(=O)[C@@H]2Cc2ccc(OCC(=O)NCCC(=O)Nc3ccccc3N)c(OC)c2)cc1OC,cell growth or viability,CCK-8,48 h,,,IC50,> 5000 nM
Cc1ncsc1-c1ccc(CNC(=O)[C@@H]2C[C@@H](O)CN2C(=O)[C@@H](NC(=O)C2(F)CC2)C(C)(C)C)c(OCCOc2ccc(CN3CCN(c4cc(-c5ccccc5O)nnc4N)CC3)cc2)c1,cell proliferation,CellTiter-Glo,168 h,,,IC50,28 nM
C[C@@H]1CN(c2ccc(-c3cc(C(=O)NCCOCCOCCOCCOCCNC(=O)Cn4cc(-c5[nH]cc(C(=O)N[C@@H](CC(N)=O)c6ccc(F)c(Cl)c6)c5-c5ccc(Cl)cc5F)cn4)ccc3F)cc2NC(=O)c2c[nH]c(=O)cc2C(F)(F)F)C[C@H](C)N1C,cell growth or viability,ATP luminescence,5 days,,,EC50,2490 nM
CCCNNC(=O)c1ccc(CNC(=O)c2ccccc2)cc1,cell growth or viability,resazurin,48 h,,,EC50,38 to 287 nM
COc1ccc(C[C@H]2COC(=O)[C@@H]2Cc2ccc(OCC(=O)Nc3ccc(C(=O)Nc4ccccc4N)cc3)c(OC)c2)cc1OC,cell growth or viability,CCK-8,48 h,,,IC50,750 nM
COC(=O)C[C@](O)(CCCC(C)(C)O)C(=O)O[C@@H]1C(OC)=C[C@]23CCCN2CCc2cc4c(cc2[C@H]13)OCO4,,,72 h,cytotoxic drug,below 1 means synergy,combination index,0.67 ± 0.06

# Repeated from above:
Compound,observed,technique,time,together with,reading,measurement,value
C[C@@H]1CN(c2ccc(-c3cc(C(=O)NCCOCCOCCOCCOCCNC(=O)Cn4cc(-c5[nH]cc(C(=O)N[C@@H](CC(N)=O)c6ccc(F)c(Cl)c6)c5-c5ccc(Cl)cc5F)cn4)ccc3F)cc2NC(=O)c2c[nH]c(=O)cc2C(F)(F)F)C[C@H](C)N1C,cell growth or viability,ATP luminescence,5 days,,,EC50,2490 nM
